# Experimental data from different studies.
# Lines come from different studies, so protocols differ.
SMILES,assay,system,setting,quantity,value
O=C(CCCCCCNC(=O)c1cnc(N(c2ccccc2)c2ccccc2)nc1)NO,,"human patients, plasma","oral, 160 mg, LLOQ 0.50 ng/mL",time above LLOQ,24 h
COc1cccc(-c2ccc(NC(=O)C3=C(C(=O)O)CCC3)c(F)c2)c1,,"male humans, plasma","oral, once daily, 5 half-lives",time to 97% of steady state,≥ 9000 min
CC(=O)O[C@H]1C(=O)[C@@]2(C)[C@H]([C@H](OC(=O)c3ccccc3)[C@]3(O)C[C@H](OC(=O)[C@H](O)[C@@H](NC(=O)c4ccccc4)c4ccccc4)C(C)=C1C3(C)C)[C@]1(OC(C)=O)CO[C@@H]1C[C@@H]2O,,"human patients, plasma","intravenous, 100 mg/m2, 3 h infusion, cycle 1, concentration above 0.05 µM, no protease inhibitors",time above plasma concentration,6.7 h
Cc1ccccc1-c1cc(N2CCN(C)CC2)ncc1N(C)C(=O)C(C)(C)c1cc(C(F)(F)F)cc(C(F)(F)F)c1,,"human, plasma","oral, dose not given",time to first quantifiable plasma level,≤ 1 h
O=C(c1ccc(F)c(F)c1Nc1ccc(I)cc1F)N1CC(O)([C@@H]2CCCCN2)C1,,human,"oral, daily dosing",time to steady state,~14400 min
CC[C@H](C)[C@@H]1NC(=O)[C@H](Cc2ccc(O)cc2)NC(=O)[C@@H](N)CSSC[C@@H](C(=O)N2CCC[C@H]2C(=O)N[C@@H](CC(C)C)C(=O)NCC(N)=O)NC(=O)[C@H](CC(N)=O)NC(=O)[C@H](CCC(N)=O)NC1=O,radioimmunoassay,"human, lumbar CSF","intranasal, 24 IU",time to significant level,≤ 75 min
C[C@H]1CNCCCN1S(=O)(=O)c1cccc2cncc(F)c12,conjunctival hyperaemia,human male,"topical ocular, 1 drop per eye twice daily",time to peak hyperaemia,15 min
C[C@@H]1CCC[C@H](n2cnc(-c3cc(Cl)ccc3-n3cc(Cl)nn3)cc2=O)c2cc(ccn2)-c2c(cnn2C(F)F)NC1=O,,"healthy human, plasma",20 to 500 mg once daily,time to steady state,3 dosing days
O=C(NCCN1CCCC1)c1cc(-c2ccc(CN3CCOCC3)cc2)nc2ccc(F)cc12,,"human, whole blood","oral, 400 mg or higher, threshold 10 ng/mL",time above parasiticidal level,≥ 7 days
CCCCCCCCCC(=O)O,,"healthy male humans, serum","oral, dose not given, insulin tablet, with: sodium caprate 550 mg",time to baseline serum level,~2 h
CC[C@H](C)[C@H](NC(=O)[C@H](CCC(N)=O)NC(=O)[C@H](Cc1c[nH]cn1)NC(=O)[C@H](C)NC(=O)[C@H](CC(C)C)NC(=O)[C@H](CCCCN)NC(=O)[C@H](CCC(N)=O)NC(=O)[C@@H](NC(=O)[C@@H](NC(=O)[C@@H]1CSSC[C@H](NC(=O)CNC(=O)[C@H](Cc2ccccc2)NC(=O)[C@H](CO)NC(=O)[C@H](CCCNC(=N)N)NC(=O)[C@H](CC(C)C)NC(=O)CNC(=O)[C@H](CCC(N)=O)NC(=O)[C@H](Cc2ccccc2)NC(=O)[C@H](CC(N)=O)NC(=O)[C@H](CC(N)=O)NC(=O)[C@H](CCSC)NC(=O)[C@H](CO)NC(=O)[C@H](CCC(N)=O)NC(=O)[C@H](CCCNC(=N)N)NC(=O)[C@@H](N)Cc2ccc(O)cc2)C(=O)N[C@@H](CCCNC(=N)N)C(=O)N[C@@H](Cc2ccccc2)C(=O)NCC(=O)N[C@@H]([C@@H](C)O)C(=O)N1)[C@@H](C)O)C(C)C)C(=O)N[C@@H](Cc1ccc(O)cc1)C(=O)N[C@@H](CCC(N)=O)C(=O)N[C@@H](Cc1ccccc1)C(=O)N[C@H](C(=O)N[C@@H](CC(=O)O)C(=O)N[C@@H](CCCCN)C(=O)N[C@@H](CC(=O)O)C(=O)N[C@@H](CCCCN)C(=O)N[C@@H](CC(=O)O)C(=O)N[C@@H](CC(N)=O)C(=O)N[C@H](C(=O)N[C@@H](C)C(=O)N1CCC[C@H]1C(=O)N[C@@H](CCCNC(=N)N)C(=O)N[C@@H](CO)C(=O)N[C@@H](CCCCN)C(=O)N[C@H](C(=O)N[C@@H](CO)C(=O)N1CCC[C@H]1C(=O)N[C@@H](CCC(N)=O)C(=O)NCC(=O)N[C@@H](Cc1ccc(O)cc1)C(N)=O)[C@@H](C)CC)C(C)C)[C@@H](C)O,,"human, Crohn's disease, plasma","intravenous infusion, 10 or 15 ng/kg/min, 8 h infusion",time to return to baseline,≤ 2 h
CC(C)(C)c1cc(C(C)(C)C)c(NC(=O)c2c[nH]c3ccccc3c2=O)cc1O,,human cystic fibrosis patients,"oral, twice-daily dosing, with: tezacaftor once daily",time to steady state,4320 to 7200 min

# Some of these lines once more:
SMILES,assay,system,setting,quantity,value
O=C(c1ccc(F)c(F)c1Nc1ccc(I)cc1F)N1CC(O)([C@@H]2CCCCN2)C1,,human,"oral, daily dosing",time to steady state,~14400 min
